Published values from different studies.
Numbered parts are unrelated; each lists some results of a single study. Substitutions count along the parent as printed.

Study 1
Target: CREB3L4, bZIP domain (human)
Method: DHFR protein complementation
Medium: yeast
Setting: single substitutions, most at no-binding floor
Baseline: wild-type JUN-FOS pair
Direction: higher = stronger binding
Parent: JUN, bZIP domain (human); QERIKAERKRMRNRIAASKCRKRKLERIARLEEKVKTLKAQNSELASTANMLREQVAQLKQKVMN; partner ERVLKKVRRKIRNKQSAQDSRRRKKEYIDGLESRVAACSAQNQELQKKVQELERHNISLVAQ
Change	binding fitness [natural log]
L52R	-1.51
K36C	-1.47
K34R	-1.4
A46P	-1.56
E54D	-1.09
T48F	-1.41
Q55H	-1.49
K34H	-1.48
T37N	-1.37
K34Q	-1.52
K39Q	-1.53
E33F	-1.53
Q41D	-1.53
T37W	-1.44
T37S	-1.21
L31D	-1.5
K39N	-1.5
A40V	-1.42
L52M	-1.48
R53H	-1.34
A49C	-1.26
M51A	-1.24
M51N	-1.5
A46W	-1.39
A40H	-1.6

Study 2
Target: Sal-like protein 4, full length isoform A (SALL4, Homo sapiens, UniProt Q9UJQ4, residues 1-1053)
Chain of UniProt Q9UJQ4 (whole entry, looked up): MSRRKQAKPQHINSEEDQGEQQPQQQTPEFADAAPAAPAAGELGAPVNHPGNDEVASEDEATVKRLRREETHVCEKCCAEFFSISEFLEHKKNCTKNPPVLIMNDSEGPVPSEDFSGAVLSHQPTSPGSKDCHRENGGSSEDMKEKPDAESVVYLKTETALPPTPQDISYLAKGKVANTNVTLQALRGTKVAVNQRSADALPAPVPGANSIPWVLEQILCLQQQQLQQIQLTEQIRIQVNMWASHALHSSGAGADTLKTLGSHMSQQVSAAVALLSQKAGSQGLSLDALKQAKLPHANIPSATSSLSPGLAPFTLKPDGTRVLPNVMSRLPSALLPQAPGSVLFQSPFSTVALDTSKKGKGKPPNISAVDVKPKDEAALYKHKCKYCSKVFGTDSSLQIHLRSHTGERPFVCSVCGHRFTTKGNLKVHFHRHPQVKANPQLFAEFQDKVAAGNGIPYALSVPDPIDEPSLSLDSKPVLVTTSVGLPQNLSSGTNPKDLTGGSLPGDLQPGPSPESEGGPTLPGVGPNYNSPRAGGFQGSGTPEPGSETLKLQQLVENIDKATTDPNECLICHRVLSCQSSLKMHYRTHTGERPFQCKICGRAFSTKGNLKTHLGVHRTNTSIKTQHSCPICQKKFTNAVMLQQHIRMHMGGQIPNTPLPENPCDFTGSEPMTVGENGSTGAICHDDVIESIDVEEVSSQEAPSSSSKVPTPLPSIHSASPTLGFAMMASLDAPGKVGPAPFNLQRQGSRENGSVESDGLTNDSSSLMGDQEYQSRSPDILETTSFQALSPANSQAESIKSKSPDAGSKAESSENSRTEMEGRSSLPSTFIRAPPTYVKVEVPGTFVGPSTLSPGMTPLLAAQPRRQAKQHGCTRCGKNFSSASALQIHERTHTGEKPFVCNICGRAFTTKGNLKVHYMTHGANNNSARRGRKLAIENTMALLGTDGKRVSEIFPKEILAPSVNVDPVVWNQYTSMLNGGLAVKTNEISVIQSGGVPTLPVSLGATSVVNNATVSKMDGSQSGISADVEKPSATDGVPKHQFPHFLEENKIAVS
Method: universal PBM
Form: double-stranded DNA, one strand shown
Medium: in vitro
Concentration: 600 nM
Setting: 8-mer, flanks averaged, mean of replicates
Direction: higher = stronger binding
Sequence	E-score
ACCCGAAT	0.0281
ATACGGGC	-0.0927
ATGATTAG	0.271
GCGTAACC	-0.0745
GCGCAGGA	-0.237
CCTAAAGC	-0.206
CTTATCAA	0.291
ATTTTGGC	0.2
AGACCAAT	0.151
AACCCGTT	-0.168
ACACCGAA	-0.0855
ACTAGGAG	-0.165
CTGACCTC	-0.334
ACACGTTA	0.133
CGTTGATA	0.213
CCGCAAAG	-0.106
CGATTTAG	0.188
AGGTCGAG	-0.0388
AGAACGAC	-0.0409
CCGACCCC	-0.362
GGATACGA	0.00883
GCCTCAGC	-0.204
ATTGAAGA	0.158
TGCCAGAA	-0.0125
CTGCTCTA	0.0835

Study 3
Target: Phosphate system positive regulatory protein PHO4, full length, GST-tagged (PHO4, Saccharomyces cerevisiae, UniProt P07270, residues 1-312)
Method: competition protein-binding microarray
Form: double-stranded DNA, one strand shown
Medium: in vitro
Concentration: 2 µM
Setting: whole 60-bp probe, lowest competitor level
Added: Cbf1 competitor, 0.05 µM
Direction: higher = stronger binding
Shared flanks, not repeated: … GTCTTGATTCGCTTGACGCTGCTG
Construct (chain): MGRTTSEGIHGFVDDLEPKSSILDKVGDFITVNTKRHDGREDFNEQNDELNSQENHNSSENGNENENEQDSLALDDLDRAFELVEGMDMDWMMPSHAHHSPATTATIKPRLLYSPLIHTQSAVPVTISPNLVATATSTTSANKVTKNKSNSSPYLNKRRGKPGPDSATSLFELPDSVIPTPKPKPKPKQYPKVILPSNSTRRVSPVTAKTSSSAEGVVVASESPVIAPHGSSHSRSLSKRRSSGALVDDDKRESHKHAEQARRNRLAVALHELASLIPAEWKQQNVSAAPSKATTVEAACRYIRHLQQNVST
Sequence	fluorescence intensity [a.u.]
TGTCCGACAGCCCATCACGCAGAGCAAGTTTAAGAC	6010
GTTCTTACAAACAGGAACATTAGCATCATTGGATAC	4260
TTTCCAAAACTCCAACACGTGATGGATAAGATAGTC	15300
TGTATAAATGTCCGTCACGTGGCCGTCTGTCTCTTA	16600
AAGGATACACAAAGGCAGGTGATTCCTGACTACCAA	3670
CCAGTGACAAGTCGGCACGTGAAGAAGCTAGAAGAC	18200
TGCGCAACAACTTGTTGCGTGGGTGTATGTCTAGAA	6640
TTCTGACGGAGACAGAACGTGGCCGTGTACACTCTT	14400
GTTCGACAGTATTGGCGCATGACAAAAGACGAGCCG	4810
CGTCCTAGTGATTTTCACGTGAGATCCATGAGGAAG	10100
CTAACGAAGGTTTTACACGTGTTTTACAAGCCAAGT	17500
AAAGCGGTAATTTGTCTCGTGGGTGCAGATATCTAT	9890
CGTCCTAGTGATTGGCTTGTGGGTGCCATGAGGAAG	7330
CGCCATTGTATGAATCTCGTGCCAGTCCCTTTTTAA	9280
CCCAATTTTTAAAAACACGTGCCGACCAGGATTGGG	17300
AAAAAAAACCGCCATCACGTAACCGTAGCTTCCACT	4480
ATTCCAAACGTTACCCACGTTATCAACTACGATTTA	11500
CGGGGTTAAGTTTCCCACGTGTTTTGCTTGCAGCAG	16100
CTTCTGTAAATTTGTAACGTGGGTGGACGCGCCCCG	10600
CATACCCAACCTTTTCACGTGATGTAAGATATTTGT	14800
AAAGCGGTAATTTGTTCAGTGGGTGCAGATATCTAT	3540
CTAACGAAGGTTTGTTGTGTGGGTGACAAGCCAAGT	4210
TTGTAATGAGTTGGGCACATGGCGCAGTTGGTAGCG	11500
CATACCCAACCTTGGGCCGTGGGTGAAGATATTTGT	5430
TCTCTTTGAAGCCGTCACGATAGTTACAGCTAGGGT	4880

Study 4
Target: CCNF, cyclin fold, Cln2 fusion (human)
Method: yeast growth competition, sequencing
Medium: yeast
Setting: strong parent motif
Baseline: not given
Direction: higher = stronger binding
Parent: CDKN1A docking peptide (human); SKACRRLFGPVDS
Change	normalised enrichment score
SKACMRLFGPVDS [R5M]	0.521
SKACRRLFIPVDS [G9I]	7.6
SKACRRLFGPQDS [V11Q]	7.78
SKACRRLFGPCDS [V11C]	7.58
SKACRRLFGRVDS [P10R]	6.59
SIACRRLFGPVDS [K2I]	7.02
SEACRRLFGPVDS [K2E]	6.37
SKACRRLFFPVDS [G9F]	8.56
SKACRRLFGPADS [V11A]	7.52
SKACERLFGPVDS [R5E]	-0.0494
SKACCRLFGPVDS [R5C]	1.38
SKACRFLFGPVDS [R6F]	2.24
SKACRRLFGMVDS [P10M]	6.52
SKSCRRLFGPVDS [A3S]	5.35
SKACRRLPGPVDS [F8P]	0.314
SKACRNLFGPVDS [R6N]	7.08
SKACRRLFGWVDS [P10W]	6.72
SKACRRLQGPVDS [F8Q]	0.00376
SKASRRLFGPVDS [C4S]	5.87
SKACRRCFGPVDS [L7C]	0.457
SKACRRLDGPVDS [F8D]	0.592
SKACRRLFYPVDS [G9Y]	8.56
SKACRRLVGPVDS [F8V]	0.572
SKLCRRLFGPVDS [A3L]	7.1
SKRCRRLFGPVDS [A3R]	1.91

Study 5
Target: Cyclic AMP-dependent transcription factor ATF-1 (ATF1, Homo sapiens, UniProt P18846, residues 1-271, full length assumed)
Method: protein-binding microarray
Form: double-stranded DNA, one strand shown
Medium: in vitro
Concentration: not given
Setting: k-mer, scored over probes, only values ≥0.25
Direction: higher = stronger binding
Target sequence (chain): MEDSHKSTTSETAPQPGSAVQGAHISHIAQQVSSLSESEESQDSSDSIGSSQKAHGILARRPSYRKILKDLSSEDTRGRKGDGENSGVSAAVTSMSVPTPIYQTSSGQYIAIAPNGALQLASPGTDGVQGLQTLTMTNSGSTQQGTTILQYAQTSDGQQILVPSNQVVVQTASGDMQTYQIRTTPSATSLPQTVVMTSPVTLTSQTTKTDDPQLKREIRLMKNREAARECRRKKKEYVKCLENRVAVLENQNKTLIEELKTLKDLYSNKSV
Sequence	E-score
ACGTAAA	0.381
GACGACA	0.326
CACATCA	0.258
CGTCAAA	0.272
ACCCCAC	0.26
GACGTCA	0.492
AACGTAA	0.361
GTAGTGA	0.252
CCTGACG	0.324
ACGTAGC	0.415
AATTCGT	0.265
AACGCAT	0.286
TGACGCA	0.473
ACGCATG	0.287
ACATACA	0.265
AATTACG	0.295
AATGCGT	0.285
ACGTTTC	0.27
CGTATTC	0.31
CCACACG	0.275
